Assay results of several laboratories.
Numbers after ± are the reported error. No end group written: not given here. *: point of attachment.
SRXN1 C99S: SRXN1 C99S, Alexa 546 label (Homo sapiens)
B1: protein (Caulobacter crescentus, UniProt A0A0H3C860); sequence looked up; chain MEPKAALSAIRDFIAPVAPSNAPDLSEGAKVVVGQPEKAVEAETALKAERQLAAEPEKPVDNGPQPGDLRLVIEHDDASGAYVYKTVDRRTGETLQQFPREEILKMRDGPDYESGDVFDGQA
B2: TIMP4 (Homo sapiens, UniProt Q99727); sequence looked up; chain CSCAPAHPQQHICHSALVIRAKISSEKVVPASADPADTEKMLRYEIKQIKMFKGFEKVKDVQYIYTPFDSSLCGVKLEANSQKQYLLTGQVLSDGKVFIHLCNYIEPWEDLSLVQRESLNHHYHLNCGCQITTCYTVPCTISAPNECLWTDWLLERKLYGYQAQHYVCMKHVDGTCSWYRGHLPLRKEFVDIVQP
B3: mmoB 1-141 D36C (Methylococcus capsulatus, UniProt P18797); 1,5-IAEDANS label; chain MSVNSNAYDAGIMGLKGKDFADQFFADENQVVHESCTVVLVLKKSDEINTFIEEILLTDYKKNVNPTVNVEDRAGYWWIKANGKIEVDCDEISELLGRQFNVYDFLVDVSSTIGRAYTLGNKFTITSELMGLDRKLEDYHA
B4: UGT1A9 (Homo sapiens, UniProt O60656); chain GKLLVVPMDGSHWFTMRSVVEKLILRGHEVVVVMPEVSWQLGRSLNCTVKTYSTSYTLEDLDREFKAFAHAQWKAQVRSIYSLLMGSYNDIFDLFFSNCRSLFKDKKLVEYLKESSFDAVFLDPFDNCGLIVAKYFSLPSVVFARGILCHYLEEGAQCPAPLSYVPRILLGFSDAMTFKERVRNHIMHLEEHLLCHRFFKNALEIASEILQTPVTEYDLYSHTSIWLLRTDFVLDYPKPVMPNMIFIGGINCHQGKPLPMEFEAYINASGEHGIVVFSLGSMVSEIPEKKAMAIADALGKIPQTVLWRYTGTRPSNLANNTILVKWLPQNDLLGHPMTRAFITHAGSHGVYESICNGVPMVMMPLFGDQMDNAKRMETKGAGVTLNVLEMTSEDLENALKAVINDKSYKENIMRLSSLHKDRPVEPLDLAVFWVEFVMRHKGAPHLRPAAHDLTWYQYHSLDVIGFLLAVVLTVAFITFKCCAYGYRKCLGKKGRVKKAHKSKTH
B5: PLG Glu-plasminogen, mature; chain EPLDDYVNTQGASLFSVTKKQLGAGSIEECAAKCEEDEEFTCRAFQYHSKEQQCVIMAENRKSSIIIRMRDVVLFEKKVYLSECKTGNGKNYRGTMSKTKNGITCQKWSSTSPHRPRFSPATHPSEGLEENYCRNPDNDPQGPWCYTTDPEKRYDYCDILECEEECMHCSGENYDGKISKTMSGLECQAWDSQSPHAHGYIPSKFPNKNLKKNYCRNPDRELRPWCFTTDPNKRWELCDIPRCTTPPPSSGPTYQCLKGTGENYRGNVAVTVSGHTCQHWSAQTPHTHNRTPENFPCKNLDENYCRNPDGKRAPWCHTTNSQVRWEYCKIPSCDSSPVSTEQLAPTAPPELTPVVQDCYHGDGQSYRGTSSTTTTGKKCQSWSSMTPHRHQKTPENYPNAGLTMNYCRNPDADKGPWCFTTDPSVRWEYCNLKKCSGTEASVVAPPPVVLLPDVETPSEEDCMFGNGKGYRGKRATTVTGTPCQDWAAQEPHRHSIFTPETNPRAGLEKNYCRNPDGDVGGPWCYTTNPRKLYDYCDVPQCAAPSFDCGKPQVEPKKCPGRVVGGCVAHPHSWPWQVSLRTRFGMHFCGGTLISPEWVLTAAHCLEKSPRPSSYKVILGAHQEVNLEPHVQEIEVSRLFLEPTRKDIALLKLSSPAVITDKVIPACLPSPNYVVADRTECFITGWGETQGTFGAGLLKEAQLPVIENKVCNRYEFLNGRVQSTELCAGHLAGGTDSCQGDSGGPLVCFEKDKYILQGVTSWGLGCARPNKPGVYVRVSRFVTWIEGVMRNN
B6: metQ residues 17-271 N229A (Escherichia coli); chain SLALVGCGQDEKDPNHIKVGVIVGAEQQVAEVAQKVAKDKYGLDVELVTFNDYVLPNEALSKGDIDANAFQHKPYLDQQLKDRGYKLVAVGNTFVYPIAGYSKKIKSLDELQDGSQVAVPNDPTNLGRSLLLLQKVGLIKLKDGVGLLPTVLDVVENPKNLKIVELEAPQLPRSLDDAQIALAVINTTYASQIGLTPAKDGIFVEDKESPYVALIVTREDNKDAENVKKFVQAYQSDEVYEAANKVFNGGAVKGW
UniProt P26447, sequence (whole entry, looked up): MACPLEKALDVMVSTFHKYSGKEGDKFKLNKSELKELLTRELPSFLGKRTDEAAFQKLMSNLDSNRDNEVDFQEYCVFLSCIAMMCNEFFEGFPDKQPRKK
UniProt A0A1D5PXA5, sequence (whole entry, looked up): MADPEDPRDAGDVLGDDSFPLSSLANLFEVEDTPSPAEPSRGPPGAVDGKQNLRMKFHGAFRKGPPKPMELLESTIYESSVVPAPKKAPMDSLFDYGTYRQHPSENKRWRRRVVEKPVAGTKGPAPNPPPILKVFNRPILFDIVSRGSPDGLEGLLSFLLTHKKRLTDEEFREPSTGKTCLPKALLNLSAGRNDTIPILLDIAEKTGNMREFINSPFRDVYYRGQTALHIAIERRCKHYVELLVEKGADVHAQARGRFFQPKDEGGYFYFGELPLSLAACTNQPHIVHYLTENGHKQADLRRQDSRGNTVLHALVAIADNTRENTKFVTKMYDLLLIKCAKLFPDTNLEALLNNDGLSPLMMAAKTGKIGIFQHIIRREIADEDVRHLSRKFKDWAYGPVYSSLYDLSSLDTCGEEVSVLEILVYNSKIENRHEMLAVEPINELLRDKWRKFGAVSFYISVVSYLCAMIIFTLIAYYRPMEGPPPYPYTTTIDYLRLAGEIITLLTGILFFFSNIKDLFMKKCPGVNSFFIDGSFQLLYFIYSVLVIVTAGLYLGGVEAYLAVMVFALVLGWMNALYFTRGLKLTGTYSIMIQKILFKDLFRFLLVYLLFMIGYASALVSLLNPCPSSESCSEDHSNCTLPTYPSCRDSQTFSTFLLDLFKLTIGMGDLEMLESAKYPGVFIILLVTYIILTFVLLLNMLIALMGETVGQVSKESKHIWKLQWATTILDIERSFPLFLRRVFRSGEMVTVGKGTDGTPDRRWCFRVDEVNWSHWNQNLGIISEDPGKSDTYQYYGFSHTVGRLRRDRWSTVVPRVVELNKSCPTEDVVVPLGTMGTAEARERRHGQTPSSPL
UniProt P22869, sequence (whole entry, looked up): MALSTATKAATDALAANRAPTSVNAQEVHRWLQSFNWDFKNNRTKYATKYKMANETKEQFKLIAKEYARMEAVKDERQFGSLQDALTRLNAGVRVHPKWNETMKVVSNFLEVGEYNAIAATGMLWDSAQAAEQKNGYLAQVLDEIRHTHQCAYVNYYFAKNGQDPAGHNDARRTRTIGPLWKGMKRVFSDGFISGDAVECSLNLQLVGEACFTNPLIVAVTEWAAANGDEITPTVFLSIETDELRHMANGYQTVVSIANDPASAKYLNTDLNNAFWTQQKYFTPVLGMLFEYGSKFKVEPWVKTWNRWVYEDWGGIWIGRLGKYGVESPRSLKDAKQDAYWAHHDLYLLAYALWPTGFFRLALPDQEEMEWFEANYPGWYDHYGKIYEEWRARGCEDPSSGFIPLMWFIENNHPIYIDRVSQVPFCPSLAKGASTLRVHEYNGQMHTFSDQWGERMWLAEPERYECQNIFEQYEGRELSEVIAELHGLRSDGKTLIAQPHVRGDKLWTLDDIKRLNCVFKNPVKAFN
UniProt P02749, sequence (whole entry, looked up): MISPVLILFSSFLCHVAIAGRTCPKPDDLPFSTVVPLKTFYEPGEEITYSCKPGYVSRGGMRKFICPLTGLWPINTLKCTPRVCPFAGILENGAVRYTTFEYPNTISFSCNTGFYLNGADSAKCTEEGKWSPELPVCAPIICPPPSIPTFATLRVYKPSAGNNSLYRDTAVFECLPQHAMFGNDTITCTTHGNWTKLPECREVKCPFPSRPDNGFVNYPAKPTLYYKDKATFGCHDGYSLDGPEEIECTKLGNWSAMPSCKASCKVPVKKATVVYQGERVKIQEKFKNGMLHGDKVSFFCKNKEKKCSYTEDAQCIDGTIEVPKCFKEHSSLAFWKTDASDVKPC
UniProt P52917, sequence (whole entry, looked up): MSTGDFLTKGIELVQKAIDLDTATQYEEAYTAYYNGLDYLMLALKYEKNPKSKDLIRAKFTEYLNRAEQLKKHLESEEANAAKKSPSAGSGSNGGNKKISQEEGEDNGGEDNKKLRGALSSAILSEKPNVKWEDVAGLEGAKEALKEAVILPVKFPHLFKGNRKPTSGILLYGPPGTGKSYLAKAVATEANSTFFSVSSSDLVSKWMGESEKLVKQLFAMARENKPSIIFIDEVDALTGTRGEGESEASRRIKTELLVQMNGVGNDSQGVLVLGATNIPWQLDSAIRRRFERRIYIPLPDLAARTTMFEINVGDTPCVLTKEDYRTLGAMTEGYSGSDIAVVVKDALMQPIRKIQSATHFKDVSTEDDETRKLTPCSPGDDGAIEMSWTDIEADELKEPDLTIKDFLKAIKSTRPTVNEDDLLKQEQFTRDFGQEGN
UniProt O13154, sequence (whole entry, looked up): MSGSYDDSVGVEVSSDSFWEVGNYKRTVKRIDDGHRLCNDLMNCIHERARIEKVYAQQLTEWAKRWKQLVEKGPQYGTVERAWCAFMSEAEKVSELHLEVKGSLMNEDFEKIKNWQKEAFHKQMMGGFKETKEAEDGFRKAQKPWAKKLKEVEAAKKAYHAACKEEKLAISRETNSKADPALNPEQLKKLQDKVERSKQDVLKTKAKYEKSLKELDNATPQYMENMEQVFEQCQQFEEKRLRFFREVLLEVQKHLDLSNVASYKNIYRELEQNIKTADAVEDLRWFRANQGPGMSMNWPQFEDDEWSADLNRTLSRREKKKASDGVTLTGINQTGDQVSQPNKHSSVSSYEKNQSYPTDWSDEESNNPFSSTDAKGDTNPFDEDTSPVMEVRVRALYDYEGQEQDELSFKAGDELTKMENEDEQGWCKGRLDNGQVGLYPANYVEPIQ

`B1 (protein)` gave a Kd of 5.6 ± 0.54 µM (popA, Atto-488 label (Caulobacter crescentus, UniProt A0A0H3C8I4); MST).
`S100A4, QSY 35 on amines (Homo sapiens, UniProt P26447)` gave a Kd of 0.0429 µM (SRXN1 C99S; FRET; apparent, with EGTA).
`B2 (TIMP4)` has a Kd of 0.024 ± 0.01 µM (LRP1 (Homo sapiens, UniProt Q07954); SPR; 25 °C).
For `TKDELTKIMDRASKIEQIQKLAKYAISALNYEALPTAKDELTKALDLLNSI (VTA1 280-330 D312A (Saccharomyces cerevisiae, UniProt Q06263); sequence looked up)`, the Kd was greater than 1000 µM (VPS4 299-415 (Saccharomyces cerevisiae, UniProt P52917); SPR; pH 7.0, NaCl 150 mM, equilibrium fit).
`{5‑TAMRA-Ahx}-NLSELDRLLDELN (PXN residues 141-153 L10D; N-terminal TAMRA, aminohexanoyl linker; 5‑TAMRA = CN(C)c1ccc2c(-c3ccc(C(=O)*)cc3C(=O)[O-])c3ccc(N(C)C)cc3[o+]c2c1; Ahx = NCCCCCC(=O)O)` gave a Kd of 70.8 µM (PTK2 892-1052 I936A (Homo sapiens, UniProt Q05397); fluorescence polarisation; peptide).
The Kd of `B3 (mmoB 1-141 D36C)` is reported as 0.55 ± 0.03 µM (soluble methane monooxygenase hydroxylase α2β2γ2 dimer 1-527 (Methylococcus capsulatus, UniProt P22869); fluorescence polarisation; two-site fit, added: diiron(III)).
With `CFH CCP1-4 V62I (Homo sapiens)` the Kd was 14 µM (C3 C3b (Homo sapiens); SPR; 20 µM, 25 °C).
`TKGPAPNPPPILKV (TRPV4 121-134 (Gallus gallus, UniProt A0A1D5PXA5); sequence looked up)` gave a Kd of 12.7 ± 2.4 µM (PACSIN2 388-448 (Gallus gallus, UniProt O13154); NMR titration; peptide; pH 7, NaCl 100 mM).
`Tigit fragment (Mus musculus)` has a Kd of 1.29 µM (Pvr/IgG1 Fc Fc fusion, extracellular domain (Mus musculus); SPR; avidity, bivalent analyte model).
`B4 (UGT1A9)` gave a Vmax of 0.0022 µmol/min/mg (O=c1c(O)c(-c2ccc(O)c(O)c2)oc2ccccc12; steady-state kinetics; pH 7.4, 37 °C).
The Kd of `B5 (PLG Glu-plasminogen, mature)` is reported as greater than 1 µM (APOH mature (Homo sapiens, UniProt P02749); optical biosensor).
The Kd of `S100A4, S-glutathionylated, QSY 35 on amines (Homo sapiens, UniProt P26447)` is reported as 0.024 µM (SRXN1 C99S; FRET; apparent, with EGTA).
`B6 (metQ residues 17-271 N229A)` gave a Kd of 0.027 ± 0.009 µM (metN/metI E166Q (Escherichia coli); MST; pH 8.5, 25 °C, NaCl 100 mM, added: ATP 1 mM).

A few entries again:
`Tigit fragment (Mus musculus)` has a Kd of 1.29 µM (Pvr/IgG1 Fc Fc fusion, extracellular domain (Mus musculus); SPR; avidity, bivalent analyte model).
The Kd of `S100A4, S-glutathionylated, QSY 35 on amines (Homo sapiens, UniProt P26447)` is reported as 0.024 µM (SRXN1 C99S; FRET; apparent, with EGTA).
